{"data": "Measured values pooled from the literature", "target": "Serine/threonine-protein kinase A-Raf (ARAF, Homo sapiens, UniProt P10398)", "Residues used in one study (P10398 1-606)": "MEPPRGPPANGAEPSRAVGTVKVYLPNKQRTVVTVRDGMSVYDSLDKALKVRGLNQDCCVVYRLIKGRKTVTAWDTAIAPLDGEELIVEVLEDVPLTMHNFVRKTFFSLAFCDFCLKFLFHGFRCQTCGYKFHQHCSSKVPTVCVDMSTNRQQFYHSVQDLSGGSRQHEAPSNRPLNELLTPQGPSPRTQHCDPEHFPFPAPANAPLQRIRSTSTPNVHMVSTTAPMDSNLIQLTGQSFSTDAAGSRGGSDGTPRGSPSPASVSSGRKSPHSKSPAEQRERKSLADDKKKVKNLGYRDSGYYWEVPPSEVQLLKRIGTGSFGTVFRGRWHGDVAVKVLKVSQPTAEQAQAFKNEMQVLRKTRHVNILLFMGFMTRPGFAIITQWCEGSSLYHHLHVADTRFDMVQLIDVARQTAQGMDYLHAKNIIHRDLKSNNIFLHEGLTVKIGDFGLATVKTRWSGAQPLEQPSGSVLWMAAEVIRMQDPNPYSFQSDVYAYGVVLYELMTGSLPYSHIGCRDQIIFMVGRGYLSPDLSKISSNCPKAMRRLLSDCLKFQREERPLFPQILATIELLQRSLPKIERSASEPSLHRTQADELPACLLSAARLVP", "note": "Compare with care: the assays were run in different laboratories."}
{"SMILES": "Cc1nc2c(F)cc(-c3nc(Nc4ccc(CNC(=O)CCCCCCC(=O)NO)cc4)ncc3F)cc2n1C(C)C", "assay": "enzyme activity, inhibitor", "setting": "1 µM", "endpoint": "inhibition", "value": "66%"}
{"SMILES": "O=C(Cc1ccc(OCc2ccccc2)cc1)NC1(C(=O)O)CCN(C(=O)c2ccc(-c3cccc(Cl)c3)cc2)CC1", "assay": "enzyme activity, inhibitor", "setting": "10 µM", "endpoint": "activity vs control", "value": "91%"}
{"SMILES": "Nc1ncc(-c2cc(-c3cnn(CC(F)(F)F)c3)ncc2F)nc1C(=O)NC1CNCC(F)C1 (stereo not shown)", "assay": "enzyme activity", "setting": "1 µM", "scale": "relative to: DMSO control", "endpoint": "remaining activity", "value": "81.8%"}
{"SMILES": "COc1ccc(C(=O)/C=C/c2ccccc2-c2c[nH]c3ccc(C#N)cc23)c(O)c1", "assay": "enzyme activity, inhibitor", "setting": "20 µM", "endpoint": "inhibition", "value": "6%"}
{"SMILES": "NC(=O)[C@@H](O)C[C@H]1CCc2sc3ncnc(O[C@H]4CC[C@H](N5CCOCC5)CC4)c3c21", "assay": "enzyme activity, inhibitor", "setting": "10 µM", "endpoint": "inhibition", "value": "10%"}
{"SMILES": "CS(=O)(=O)Nc1cccc(-c2csc3cnc(Nc4ccc(N5CCN(CCCCCOc6cccc7c6C(=O)N(C6CCC(=O)NC6=O)C7=O)CC5)cc4)nc23)c1 (stereo not shown)", "assay": "probe labelling, inhibitor, KiNativ chemoproteomics", "system": "MOLT-4", "setting": "1 µM", "endpoint": "inhibition", "value": "-11%"}
{"SMILES": "C=CC(=O)Nc1cc(-c2nn(C3CCN(CCNC(=O)[C@H](C)CCC45CC6CC(CC(C6)C4)C5)CC3)c3ncnc(N)c23)ccc1Oc1ccccc1", "assay": "inhibitor, KiNativ profiling", "system": "biochemical", "setting": "2 µM", "endpoint": "inhibition", "value": "-39.6%"}
{"SMILES": "CNC(=O)C[C@H](Cc1ccc(C#N)cc1)NC(=O)c1cc(-c2ccc(CN[C@H](C)c3ccc(C)cc3)o2)ccc1Cl", "assay": "enzyme activity, inhibitor", "setting": "1 µM", "endpoint": "activity vs control", "value": "99%"}
{"SMILES": "NC(=O)C[C@H]1CCc2sc3ncnc(O[C@H]4CC[C@H](N5CCOCC5)CC4)c3c21", "assay": "enzyme activity, inhibitor", "setting": "10 µM", "endpoint": "inhibition", "value": "11%"}
{"SMILES": "CN1CC[C@@H](COc2cnc(C#N)cc2-c2ccn3nc(NC(=O)C4CC4)cc3c2)C1", "assay": "enzyme activity, inhibitor", "setting": "1 µM", "endpoint": "inhibition", "value": "0%"}
{"note": "For quick reference, copied from above:"}
{"SMILES": "Nc1ncc(-c2cc(-c3cnn(CC(F)(F)F)c3)ncc2F)nc1C(=O)NC1CNCC(F)C1 (stereo not shown)", "assay": "enzyme activity", "setting": "1 µM", "scale": "relative to: DMSO control", "endpoint": "remaining activity", "value": "81.8%"}
{"SMILES": "COc1ccc(C(=O)/C=C/c2ccccc2-c2c[nH]c3ccc(C#N)cc23)c(O)c1", "assay": "enzyme activity, inhibitor", "setting": "20 µM", "endpoint": "inhibition", "value": "6%"}
